Published values gathered from unrelated publications.
Every numbered part comes from another study and shows a few of its results, in no order. “And” joins repeats or separate records; there may be more than shown.
UniProt P49137, sequence (whole entry, looked up): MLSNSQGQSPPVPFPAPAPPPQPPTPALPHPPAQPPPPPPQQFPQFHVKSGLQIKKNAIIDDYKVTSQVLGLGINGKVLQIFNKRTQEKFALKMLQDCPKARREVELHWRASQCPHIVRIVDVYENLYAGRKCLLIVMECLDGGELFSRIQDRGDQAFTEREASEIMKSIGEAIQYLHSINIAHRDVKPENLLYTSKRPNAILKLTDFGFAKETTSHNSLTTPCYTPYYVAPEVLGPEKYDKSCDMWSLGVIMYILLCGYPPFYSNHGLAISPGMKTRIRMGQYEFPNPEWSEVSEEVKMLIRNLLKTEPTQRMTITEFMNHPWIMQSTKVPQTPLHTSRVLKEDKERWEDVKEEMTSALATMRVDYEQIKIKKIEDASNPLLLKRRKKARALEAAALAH
UniProt P05771, sequence (whole entry, looked up): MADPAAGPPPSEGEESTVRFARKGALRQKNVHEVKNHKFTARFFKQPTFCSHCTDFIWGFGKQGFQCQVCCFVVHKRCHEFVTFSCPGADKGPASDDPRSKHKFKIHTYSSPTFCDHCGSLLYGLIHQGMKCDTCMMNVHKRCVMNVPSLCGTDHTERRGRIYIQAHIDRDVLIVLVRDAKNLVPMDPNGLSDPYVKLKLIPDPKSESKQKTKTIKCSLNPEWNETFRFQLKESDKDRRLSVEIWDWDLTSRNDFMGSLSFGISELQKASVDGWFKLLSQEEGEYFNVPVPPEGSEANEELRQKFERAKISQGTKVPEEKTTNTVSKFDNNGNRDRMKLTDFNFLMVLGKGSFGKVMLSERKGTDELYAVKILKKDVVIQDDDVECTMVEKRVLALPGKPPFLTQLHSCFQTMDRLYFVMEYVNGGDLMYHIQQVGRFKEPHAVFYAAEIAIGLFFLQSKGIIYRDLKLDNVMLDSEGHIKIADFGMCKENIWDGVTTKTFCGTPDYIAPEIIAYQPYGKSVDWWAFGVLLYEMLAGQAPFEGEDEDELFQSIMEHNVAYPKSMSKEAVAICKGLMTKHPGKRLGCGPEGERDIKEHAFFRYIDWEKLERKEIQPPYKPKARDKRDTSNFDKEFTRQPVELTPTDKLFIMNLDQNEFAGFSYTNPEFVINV
UniProt P36507, sequence (whole entry, looked up): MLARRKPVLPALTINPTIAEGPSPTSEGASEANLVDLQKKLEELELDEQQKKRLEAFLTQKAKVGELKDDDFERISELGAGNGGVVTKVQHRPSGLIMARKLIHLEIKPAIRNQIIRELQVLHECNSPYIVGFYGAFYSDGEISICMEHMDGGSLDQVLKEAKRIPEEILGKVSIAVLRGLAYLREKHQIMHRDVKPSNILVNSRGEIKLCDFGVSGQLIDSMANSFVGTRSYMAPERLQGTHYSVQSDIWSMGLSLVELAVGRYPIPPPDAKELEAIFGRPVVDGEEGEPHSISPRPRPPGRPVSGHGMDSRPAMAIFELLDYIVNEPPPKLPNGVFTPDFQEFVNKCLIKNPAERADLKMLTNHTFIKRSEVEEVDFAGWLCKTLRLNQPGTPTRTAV
UniProt Q9H093, sequence (whole entry, looked up): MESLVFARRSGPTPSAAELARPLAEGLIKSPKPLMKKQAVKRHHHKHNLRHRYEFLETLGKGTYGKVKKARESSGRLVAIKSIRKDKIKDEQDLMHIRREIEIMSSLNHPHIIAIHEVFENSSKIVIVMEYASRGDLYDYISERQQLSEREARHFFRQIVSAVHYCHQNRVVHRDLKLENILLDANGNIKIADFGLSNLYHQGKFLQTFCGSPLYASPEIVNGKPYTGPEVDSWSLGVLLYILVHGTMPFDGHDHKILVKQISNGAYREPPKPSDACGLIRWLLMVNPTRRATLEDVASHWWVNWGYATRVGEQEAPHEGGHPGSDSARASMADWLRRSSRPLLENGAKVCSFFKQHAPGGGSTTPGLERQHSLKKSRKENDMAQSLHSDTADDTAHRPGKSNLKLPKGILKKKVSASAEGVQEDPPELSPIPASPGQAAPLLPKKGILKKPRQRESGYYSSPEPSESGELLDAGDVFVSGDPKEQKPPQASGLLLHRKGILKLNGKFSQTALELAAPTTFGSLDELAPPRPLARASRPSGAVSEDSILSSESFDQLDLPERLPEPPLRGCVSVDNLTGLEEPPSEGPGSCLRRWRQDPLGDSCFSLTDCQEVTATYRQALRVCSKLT
UniProt P48729, sequence (whole entry, looked up): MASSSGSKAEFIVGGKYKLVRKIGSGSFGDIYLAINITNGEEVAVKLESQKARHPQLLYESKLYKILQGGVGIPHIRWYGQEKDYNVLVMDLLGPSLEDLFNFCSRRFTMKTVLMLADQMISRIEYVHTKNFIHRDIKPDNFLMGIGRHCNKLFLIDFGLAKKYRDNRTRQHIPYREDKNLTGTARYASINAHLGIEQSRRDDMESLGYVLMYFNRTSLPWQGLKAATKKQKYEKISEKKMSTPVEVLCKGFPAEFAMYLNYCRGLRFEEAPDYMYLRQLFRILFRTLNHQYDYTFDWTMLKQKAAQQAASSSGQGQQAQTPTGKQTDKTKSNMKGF

Sample 1 — effect on: enzyme activity; action: inhibitor; tested at: 0.5 µM; baseline: control; measurement: remaining activity
Target: Platelet-derived growth factor receptor alpha (PDGFRA, Homo sapiens, UniProt P16234)
UniProt P16234, sequence (whole entry, looked up): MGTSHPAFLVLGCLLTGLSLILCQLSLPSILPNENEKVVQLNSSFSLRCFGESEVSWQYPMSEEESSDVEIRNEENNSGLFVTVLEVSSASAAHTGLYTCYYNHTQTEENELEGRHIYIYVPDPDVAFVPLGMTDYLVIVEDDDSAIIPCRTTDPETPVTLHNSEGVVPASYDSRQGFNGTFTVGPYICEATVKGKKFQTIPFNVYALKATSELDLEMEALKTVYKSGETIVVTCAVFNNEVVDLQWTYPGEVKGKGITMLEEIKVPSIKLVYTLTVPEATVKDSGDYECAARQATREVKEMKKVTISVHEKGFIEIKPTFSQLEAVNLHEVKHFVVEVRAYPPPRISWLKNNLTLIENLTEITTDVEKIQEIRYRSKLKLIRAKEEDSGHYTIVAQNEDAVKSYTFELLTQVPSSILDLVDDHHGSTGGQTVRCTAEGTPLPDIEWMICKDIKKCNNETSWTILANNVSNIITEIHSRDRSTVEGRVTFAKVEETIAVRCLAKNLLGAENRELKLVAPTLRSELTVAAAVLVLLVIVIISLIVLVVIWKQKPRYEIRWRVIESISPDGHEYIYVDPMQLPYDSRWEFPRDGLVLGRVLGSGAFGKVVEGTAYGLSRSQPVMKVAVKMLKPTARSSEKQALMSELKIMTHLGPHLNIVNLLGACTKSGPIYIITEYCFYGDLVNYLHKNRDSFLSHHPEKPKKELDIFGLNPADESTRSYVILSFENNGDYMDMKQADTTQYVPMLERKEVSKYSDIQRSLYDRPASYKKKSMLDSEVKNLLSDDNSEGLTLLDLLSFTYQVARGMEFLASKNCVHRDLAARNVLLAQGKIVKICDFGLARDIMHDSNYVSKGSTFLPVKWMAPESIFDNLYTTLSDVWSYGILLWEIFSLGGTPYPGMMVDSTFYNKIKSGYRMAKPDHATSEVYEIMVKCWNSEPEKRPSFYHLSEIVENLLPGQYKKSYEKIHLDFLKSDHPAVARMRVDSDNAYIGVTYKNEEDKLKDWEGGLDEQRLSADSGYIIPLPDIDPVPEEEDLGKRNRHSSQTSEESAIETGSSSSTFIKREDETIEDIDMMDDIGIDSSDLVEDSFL
COc1ccc2c(c1)c(C1=C(c3c[nH]c4ccccc34)C(=O)NC1=O)cn2CCCN(C)C: 85.2%
CCCCc1c(-c2ccc(OC)cc2)[nH]c2nccnc12: 90.2%
N#Cc1cnc2cnc(NCc3cccnc3)cc2c1Nc1ccc(F)c(Cl)c1: 94.3%
O=Nc1c(-c2c(O)[nH]c3cc(Br)ccc23)[nH]c2ccccc12: 68.4%
Cc1cc(Nc2cc(N3CCN(C)CC3)nc(Sc3ccc(NC(=O)C4CC4)cc3)n2)[nH]n1: 71.4%
CN(C)S(=O)(=O)c1ccc2c(c1)/C(=C/c1cc3c([nH]1)CCCC3)C(=O)N2: 93.7%
O=C1Cc2c([nH]c3ccc(Br)cc23)-c2ccccc2N1: 103%
COc1cccc(-c2cc(=O)c3ccccc3o2)c1N: 103%
c1ccc2c(-c3ccncc3)c[nH]c2c1: 95%
O=C1Nc2ccc(Br)cc2/C1=C/c1cc2c([nH]1)CCCC2: 76.2%
Oc1cccc(-c2nc(N3CCOCC3)c3oc4ncccc4c3n2)c1: 99.4%
O=C1NC(=O)c2c1c1c3ccccc3[nH]c1n1cncc21: 84.4%
O=c1cc(N2CCOCC2)oc2c(-c3ccccc3)cccc12: 94.6%
O=C1Nc2ccccc2/C1=C\c1c(Cl)[nH]c2ccccc12: 88.7%
Cc1ccc(S(=O)(=O)/C=C/C#N)cc1: 94.2%
CCCNC(=O)Nc1ccc(Oc2ncnc3cc(OC)c(OC)cc23)cc1Cl: 92.2%
c1ccc(-c2n[nH]c3c2oc2ccccc23)cc1: 73.7%
COc1ccc(COc2ccc(Cc3cnc(N)nc3N)cc2OC)cc1: 99.4%
O=C1NC(=O)c2c1c1c3ccccc3[nH]c1c1[nH]c3cc(Br)ccc3c21: 97.6%

Sample 2 — effect on: ligand displacement; tested at: 10 µM; measurement: inhibition
Target: 5-hydroxytryptamine receptor 6 (HTR6, Homo sapiens, UniProt P50406)
UniProt P50406, sequence (whole entry, looked up): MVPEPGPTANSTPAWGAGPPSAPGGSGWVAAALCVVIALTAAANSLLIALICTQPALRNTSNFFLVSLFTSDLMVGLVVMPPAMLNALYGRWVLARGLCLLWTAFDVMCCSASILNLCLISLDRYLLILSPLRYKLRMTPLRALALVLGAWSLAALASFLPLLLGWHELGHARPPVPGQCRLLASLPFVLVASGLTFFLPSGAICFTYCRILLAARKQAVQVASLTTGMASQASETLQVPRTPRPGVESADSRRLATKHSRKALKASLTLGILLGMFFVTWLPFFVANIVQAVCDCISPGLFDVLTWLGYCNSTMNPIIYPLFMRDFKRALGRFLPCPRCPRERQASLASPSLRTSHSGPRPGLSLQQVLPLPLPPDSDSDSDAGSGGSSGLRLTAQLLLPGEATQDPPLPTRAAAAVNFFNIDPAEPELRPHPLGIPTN
CC[C@H](CC(=O)O)n1c(=O)c2ncccc2n(Cc2cn(C)c3cc(C)cc(C)c23)c1=O: 12.2%
CN(C)c1ncnc(-c2ccc3nc(Nc4cc(CN5CCN(C(=O)CC(F)(F)F)CC5)ccn4)[nH]c3c2)c1Cl: 12.4%
c1ccc(C2CCN(c3cnc4c(N5CCOCC5)nccn34)CC2)cc1: -7.87%
O=C1NC(c2ccccn2)Sc2ccccc21 (stereo not drawn): -15.9%
CNC(=O)Nc1ccc2c(c1)CC[C@]21OC(=O)N(CC(=O)N(Cc2ccc(F)cc2)[C@@H](C)C(F)(F)F)C1=O: 32.6%
Nc1nc(NCc2ccccc2)nc(-c2cccc(CO)c2)n1: 26.7%
CCC(F)(F)c1cc(N2CCC(S(C)(=O)=O)CC2)nc2sc(C(N)=O)c(N)c12: 8.77%
COc1cccc(NC(=O)c2nc3scc(CN(C)Cc4ccccc4)c3c(=O)[nH]2)c1: 3.76%
CN([C@@H]1CCc2c(CC(=O)O)c3ccccc3n2C1)S(=O)(=O)c1ccc(F)cc1: -14.6%
Cc1ccc(-c2cnc([C@@]3(O)CC[C@H](C(=O)O)C(C)(C)C3)s2)cc1Nc1cccc(C(F)(F)F)n1: 6.66%
C[C@H](c1ccnc(Nc2nc3ccc(-c4cc(N(C)C)ncn4)cc3[nH]2)c1)N1CCN(C(=O)CC(F)(F)F)CC1: -4.38%
O=C(NS(=O)(=O)c1ccc(NCC2CCOCC2)c([N+](=O)[O-])c1)c1ccc(N2CCN(Cc3ccc(C(F)(F)F)cc3-c3ccc(Cl)cc3)CC2)cc1Oc1cnc2[nH]ccc2c1: -14.8%
O=C(Nc1ccc(Oc2ccc(F)cc2)cc1)N1CCc2ncccc2[C@H]1c1ccc(F)cc1: 16.9%
CN1CCN(c2cnc3c(C4CCN(C(=O)c5ccc(OC(F)(F)F)cc5N)CC4)ncnc3c2)CC1: -4.69%
Cc1cc(Nc2nccc(C)n2)cc(-c2cnc([C@@]3(O)CC[C@H](C(=O)O)C(C)(C)C3)s2)c1: -12.2%
CC1=C(C#N)C(c2ccc3[nH]nc(C)c3c2)C(C#N)=C(C)N1: 20.7%

Sample 3 — SMILES: C=CCc1ccc(O)c(-c2ccc(O)c(CC=C)c2)c1; effect on: chloride current; technique: whole-cell patch clamp; measurement: normalised current
Target: Anoctamin-1 (ANO1, Homo sapiens, UniProt Q5XXA6, del476-501)
UniProt Q5XXA6, sequence (whole entry, unmodified, looked up): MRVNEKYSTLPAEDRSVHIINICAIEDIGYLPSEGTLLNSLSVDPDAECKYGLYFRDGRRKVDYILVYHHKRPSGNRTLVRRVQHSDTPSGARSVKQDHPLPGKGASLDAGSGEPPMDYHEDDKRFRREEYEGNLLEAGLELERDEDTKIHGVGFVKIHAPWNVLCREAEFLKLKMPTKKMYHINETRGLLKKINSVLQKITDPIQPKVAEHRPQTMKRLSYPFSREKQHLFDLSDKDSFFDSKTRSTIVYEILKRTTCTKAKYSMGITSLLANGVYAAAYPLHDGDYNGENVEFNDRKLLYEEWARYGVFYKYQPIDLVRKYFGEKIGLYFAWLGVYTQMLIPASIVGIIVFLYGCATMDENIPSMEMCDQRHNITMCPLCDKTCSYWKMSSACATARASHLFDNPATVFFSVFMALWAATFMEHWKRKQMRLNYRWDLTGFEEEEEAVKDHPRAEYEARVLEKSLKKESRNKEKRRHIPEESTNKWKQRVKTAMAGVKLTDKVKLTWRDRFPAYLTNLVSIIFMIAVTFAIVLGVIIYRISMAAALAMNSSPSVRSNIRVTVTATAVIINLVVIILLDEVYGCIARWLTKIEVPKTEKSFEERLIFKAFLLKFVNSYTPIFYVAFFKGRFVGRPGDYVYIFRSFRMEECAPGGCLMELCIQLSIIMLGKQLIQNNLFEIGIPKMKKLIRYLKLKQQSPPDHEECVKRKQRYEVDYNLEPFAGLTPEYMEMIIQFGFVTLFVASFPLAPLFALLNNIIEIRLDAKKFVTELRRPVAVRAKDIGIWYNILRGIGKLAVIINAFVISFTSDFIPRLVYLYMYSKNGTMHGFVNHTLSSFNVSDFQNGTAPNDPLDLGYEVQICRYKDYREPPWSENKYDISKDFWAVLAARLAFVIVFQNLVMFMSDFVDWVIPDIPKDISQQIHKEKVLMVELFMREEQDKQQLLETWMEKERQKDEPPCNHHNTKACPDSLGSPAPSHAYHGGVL
30 µM, 100 mV, 300 nM free Ca2+: 0.131 and 0.138
3 µM, 100 mV, 300 nM free Ca2+: 0.701 and 0.667
10 µM, 80 mV, 300 nM free Ca2+: 0.217 and 0.228
1 µM, 20 mV, 300 nM free Ca2+, with: honokiol and magnolol 10 µM: 0.0595
3 µM, 60 mV, 300 nM free Ca2+, with: honokiol and magnolol 10 µM: 0.149

Sample 4 — tested at: 5 µM; measurement: remaining activity
Structure (SMILES): O=C(Nc1cnn(-c2csc(C(=O)NC3COC3)c2)c1)Nc1ccccc1Cl
Dual specificity mitogen-activated protein kinase kinase 2 (MAP2K2, Homo sapiens, UniProt P36507); enzyme activity; baseline: untreated control: 91.6%
NUAK family SNF1-like kinase 2 (NUAK2, Homo sapiens, UniProt Q9H093); enzyme activity; baseline: untreated control: 97.6%
Dual serine/threonine and tyrosine protein kinase (DSTYK, Homo sapiens, UniProt Q6XUX3); enzyme activity; baseline: untreated control: 101%
Protein kinase C beta type, isoform beta-II (PRKCB, Homo sapiens, UniProt P05771); enzyme activity; baseline: untreated control: 102%
Cytoplasmic tyrosine-protein kinase BMX (BMX, Homo sapiens, UniProt P51813); enzyme activity; baseline: untreated control: 99.4%
Serine/threonine-protein kinase LATS1 (LATS1, Homo sapiens, UniProt O95835); enzyme activity; baseline: untreated control: 105%
Tyrosine-protein kinase Fyn (FYN, Homo sapiens, UniProt P06241); enzyme activity; baseline: untreated control: 91.5%
MAP kinase-activated protein kinase 2 (MAPKAPK2, Homo sapiens, UniProt P49137); enzyme activity; baseline: untreated control: 95.8%
Dual specificity mitogen-activated protein kinase kinase 7 (MAP2K7, Homo sapiens, UniProt O14733); enzyme activity; baseline: untreated control: 109%
Serine/threonine-protein kinase MRCK gamma (CDC42BPG, Homo sapiens, UniProt Q6DT37); kinase activity, kinase panel profiling: 87%
Protein-tyrosine kinase 6 (PTK6, Homo sapiens, UniProt Q13882); enzyme activity; baseline: untreated control: 101%
Serine/threonine-protein kinase Nek2 (NEK2, Homo sapiens, UniProt P51955); enzyme activity; baseline: untreated control: 102%
Casein kinase I isoform alpha (CSNK1A1, Homo sapiens, UniProt P48729); enzyme activity; baseline: untreated control: 93.3%
Receptor-interacting serine/threonine-protein kinase 4 (RIPK4, Homo sapiens, UniProt P57078); enzyme activity, inhibitor: 89.2%

Excerpt of the above (sample 3):
30 µM, 100 mV, 300 nM free Ca2+: 0.131 and 0.138
3 µM, 100 mV, 300 nM free Ca2+: 0.701 and 0.667
10 µM, 80 mV, 300 nM free Ca2+: 0.217 and 0.228
1 µM, 20 mV, 300 nM free Ca2+, with: honokiol and magnolol 10 µM: 0.0595
3 µM, 60 mV, 300 nM free Ca2+, with: honokiol and magnolol 10 µM: 0.149
